Experimental data gathered from unrelated publications.
Target: 1-phosphatidylinositol 3-phosphate 5-kinase (PIKFYVE, Homo sapiens, UniProt Q9Y2I7)

| Compound | assay | test system | conditions | quantity | result |
| --- | --- | --- | --- | --- | --- |
| CNC(=O)C1CCN(c2cc(C)c(F)cc2NC(=O)c2ccc(-c3cc(O)ccc3C)c(C)c2)CC1 | binding, competition with immobilised ligand |  | 1 µM | remaining binding | 100% |
| CC(C)=CC1OC(C)(C)C2C=C3C(=O)C(Cl)=CC(O)C3C3C(O)C4OC4C(=O)C132 (centres unmarked) | cell-free assay, competition with immobilised ligand |  | 10 µM | remaining binding | 85% |
| CS(=O)(=O)Nc1cccc(-c2csc3cnc(Nc4ccc(N5CCN(CCCCCOc6cccc7c6C(=O)N(C6CCC(=O)NC6=O)C7=O)CC5)cc4)nc23)c1 (centres unmarked) | probe labelling, inhibitor, KiNativ chemoproteomics | MOLT-4 | 1 µM | inhibition | -0.464% |
| Cc1cnc2nc1Nc1cccc(c1)COC/C=C/COCc1cc(ccc1OCCN1CCOCC1)N2 |  |  | concentration not given | percent of control | 100% |
| Nc1ncc2c(n1)-c1c([nH]c3ccc(C4=CCOCC4)cc13)CCC2 | binding, competition with immobilised ligand |  | 1 µM | remaining binding | 0% |
| COc1cc(Nc2nccc(-c3cnn4nc(OC)ccc34)n2)cc(C(F)(F)F)c1 | binding, competition with immobilised ligand |  | 1 µM | remaining binding | 81% |
| C=CC(=O)N1CCCC(n2c(=O)c3ncccc3n(Cc3ccc(Oc4ccccc4)cc3)c2=O)C1 (centres unmarked) | cell-free assay, competition with immobilised ligand |  | 1 µM | remaining binding | 76% |
| COc1c(Cl)cccc1Nc1c(-c2ccncc2C#C[C@@]2(C)CCCN2C(=O)/C=C/CN(C)C)[nH]c2c1C(=O)NCC2 | binding, competition with immobilised ligand |  | 3 µM | remaining binding | 32% |
